Experimental data gathered from unrelated publications.
Compare with care: the assays were run in different laboratories. Several values in a cell are separate wells, animals, samples, runs or records. Numbers after ± are the reported error.
B1: CASP10 (Homo sapiens, UniProt Q92851); chain 1 VKTFLEALPQESWQNKHAGSNGNRATNGAPSLVSRGMQGASANTLNSETSTKRAAVYRMNRNHRGLCVIVNNHSFTSLKDRQGTHKDAEILSHVFQWLGFTVHIHNNVTKVEMEMVLQKQKCNPAHADGDCFVFCILTHGRFGAVYSSDEALIPIREIMSHFTALQCPRLAEKPKLFFIQACQGEEIQPSVSIEAD; chain 2 ALNPEQAPTSLQDSIPAEADFLLGLATVPGYVSFRHVEEGSWYIQSLCNHLKKLVPRMLKFLEKTMEIRGRKRTVWGAKQISATSLPTAISAQTPRPPMRRWSSVS
B2: SIRT5 R105A (Homo sapiens, UniProt Q9NXA8); chain ARPSSSMADFRKFFAKAKHIVIISGAGVSAESGVPTFRGAGGYWRKWQAQDLATPLAFAHNPSRVWEFYHYAREVMGSKEPNAGHRAIAECETRLGKQGRRVVVITQNIDELHRKAGTKNLLEIHGSLFKTRCTSCGVVAENYKSPICPALSGKGAPEPGTQDASIPVEKLPRCEEAGCGGLLRPHVVWFGENLDPAILEEVDRELAHCDLCLVVGTSSVVYPAAMFAPQVAARGVPVAEFNTETTPATNRFRFHFQGPCGTTLPEALA
B3: UGT76G1 (Stevia rebaudiana, UniProt Q6VAB4); chain MENKTETTVRRRRRIILFPVPFQGHINPILQLANVLYSKGFSITIFHTNFNKPKTSNYPHFTFRFILDNDPQDERISNLPTHGPLAGMRIPIINEHGADELRRELELLMLASEEDEEVSCLITDALWYFAQSVADSLNLRRLVLMTSSLFNFHAHVSLPQFDELGYLDPDDKTRLEEQASGFPMLKVKDIKSAYSNWQILKEILGKMIKQTKASSGVIWNSFKELEESELETVIREIPAPSFLIPLPKHLTASSSSLLDHDRTVFQWLDQQPPSSVLYVSFGSTSEVDEKDFLEIARGLVDSKQSFLWVVRPGFVKGSTWVEPLPDGFLGERGRIVKWVPQQEVLAHGAIGAFWTHSGWNSTLESVCEGVPMIFSDFGLDQPLNARYMSDVLKVGVYLENGWERGEIANAIRRVMVDEEGEYIRQNARVLKQKADVSLMKGGSSYESLESLVSYISSL

For `CCCC[C@H](NC(=O)CCCCCCCNC(=O)CN1CCN(CC(=O)O)CCN(CC(=O)O)CC1)C(=O)N[C@H]1CC(=O)NCCCC[C@@H](C(N)=O)NC(=O)[C@H](Cc2c[nH]c3ccccc23)NC(=O)[C@H](CCCNC(=N)N)NC(=O)[C@@H](Cc2ccccc2)NC(=O)[C@H](Cc2c[nH]cn2)NC1=O` [technetium-99m labelled], the tissue uptake was 0.01 ± 0.01 %ID/g (C57 mouse, brain; intravenous, 0.037 MBq, 24 h).
With `B1 (CASP10)` the kcat/Km was 4220 M⁻¹ s⁻¹ (CC[C@H](C)[C@H](NC(C)=O)C(=O)N[C@@H](CCC(=O)O)C(=O)N1CCC[C@H]1C(=O)N[C@@H](CC(=O)O)C(=O)Nc1ccc2c(C)cc(=O)oc2c1; steady-state kinetics; 37 °C).
With `rCR (Lodderomyces parapsilosis, UniProt A1X808)` the kcat/Km was 1200 M⁻¹ s⁻¹ (CC(=O)c1cccc(Cl)c1; steady-state kinetics; pH 7, 30 °C, with: NADH 0.5 mM).
For `B2 (SIRT5 R105A)`, the kcat was 0.0175 ± 0.0021 s⁻¹ (CSCC[C@H](NC(=O)[C@H](CC(C)C)NC(=O)[C@H](CCCCNC(C)=O)NC(=O)[C@H](CCCCN)NC(=O)[C@H](Cc1c[nH]cn1)NC(=O)[C@H](CCCNC(=N)N)NC(=O)[C@H](CO)NC(=O)[C@@H](NC(=O)[C@H](CO)NC(=O)[C@H](CCC(N)=O)NC(=O)CNC(=O)[C@H](CCCCN)NC(=O)[C@@H](N)CCCCN)[C@@H](C)O)C(=O)N[C@@H](Cc1ccccc1)C(=O)N[C@@H](CCCCN)C(=O)N[C@H](C(=O)N[C@@H](CCC(=O)O)C(=O)NCC(=O)O)[C@@H](C)O; steady-state kinetics; pH 7.5, 37 °C, with: saturating NAD+).
For `CCCC[C@H](NC(=O)COCCOCCNC(=O)CN1CCN(CC(=O)O)CCN(CC(=O)O)CC1)C(=O)N[C@H]1CC(=O)NCCCC[C@@H](C(N)=O)NC(=O)[C@H](Cc2c[nH]c3ccccc23)NC(=O)[C@H](CCCNC(=N)N)NC(=O)[C@@H](Cc2ccccc2)NC(=O)[C@H](Cc2c[nH]cn2)NC1=O` [technetium-99m labelled], the tissue uptake was 0.85 ± 0.75 %ID/g (C57 mouse, spleen; intravenous, 0.037 MBq, 0.5 h).
`B3 (UGT76G1)` has a kcat/Km of 14300 M⁻¹ s⁻¹ (C=C1C[C@@]23CC[C@H]4[C@@](C)(CCC[C@@]4(C)C(=O)O[C@@H]4O[C@H](CO)[C@@H](O)[C@H](O)[C@H]4O)[C@@H]2CC[C@]1(O[C@@H]1O[C@H](CO)[C@@H](O)[C@H](O)[C@H]1O[C@@H]1O[C@H](CO)[C@@H](O)[C@H](O)[C@H]1O)C3; steady-state kinetics; pH 7.25, 40 °C).
For `CC(C)C[C@H](NC(=O)[C@H](Cc1ccc(O)cc1)NC(=O)[C@@H](CCCNC(=N)N)NC(=O)[C@@H](CO)NC(=O)[C@H](Cc1ccccc1)NC(=O)[C@H](CC1CCCCC1)NC(=O)[C@H](CC(=O)O)NC(=O)CN1CCN(CC(=O)O)CCN(CC(=O)O)CCN(CC(=O)O)CC1)C(=O)N[C@@H](Cc1c[nH]c2ccccc12)C(=O)N[C@@H](CO)C(=O)O` [copper-64 labelled], the activity concentration was 10600 Bq/mL and 17100 Bq/mL and 17300 Bq/mL and 11800 Bq/mL and 20400 Bq/mL and 12100 Bq/mL (human, liver; concentration not given, 3 h).
For `CC(C)C[C@H](NC(=O)[C@@H](CCCCNC(=O)[C@@H](Cc1ccccc1)NC(=O)CCCCCNC(=O)CN1CCN(CC(=O)O)CCN(CC(=O)O)CCN(CC(=O)O)CC1)NC(=O)[C@H](Cc1ccc(O)cc1)NC(=O)[C@H](CO)NC(=O)[C@H](Cc1c[nH]c2ccccc12)NC(=O)[C@H](Cc1c[nH]cn1)NC(=O)[C@@H]1CCC(=O)N1)C(=O)N[C@@H](CCCNC(=N)N)C(=O)N1CCC[C@H]1C(=O)NCC(N)=O` [indium-111 labelled], the tissue uptake was 0.47 ± 0.11 %ID/g (female athymic nude mice, liver; intravenous, 0.037 MBq, 2 h).

A few entries again:
For `CCCC[C@H](NC(=O)COCCOCCNC(=O)CN1CCN(CC(=O)O)CCN(CC(=O)O)CC1)C(=O)N[C@H]1CC(=O)NCCCC[C@@H](C(N)=O)NC(=O)[C@H](Cc2c[nH]c3ccccc23)NC(=O)[C@H](CCCNC(=N)N)NC(=O)[C@@H](Cc2ccccc2)NC(=O)[C@H](Cc2c[nH]cn2)NC1=O` [technetium-99m labelled], the tissue uptake was 0.85 ± 0.75 %ID/g (C57 mouse, spleen; intravenous, 0.037 MBq, 0.5 h).
